Assay results from different studies.
Parts stem from different laboratories: compare values within a part only.
UniProt Q9BYT3, sequence (whole entry, looked up): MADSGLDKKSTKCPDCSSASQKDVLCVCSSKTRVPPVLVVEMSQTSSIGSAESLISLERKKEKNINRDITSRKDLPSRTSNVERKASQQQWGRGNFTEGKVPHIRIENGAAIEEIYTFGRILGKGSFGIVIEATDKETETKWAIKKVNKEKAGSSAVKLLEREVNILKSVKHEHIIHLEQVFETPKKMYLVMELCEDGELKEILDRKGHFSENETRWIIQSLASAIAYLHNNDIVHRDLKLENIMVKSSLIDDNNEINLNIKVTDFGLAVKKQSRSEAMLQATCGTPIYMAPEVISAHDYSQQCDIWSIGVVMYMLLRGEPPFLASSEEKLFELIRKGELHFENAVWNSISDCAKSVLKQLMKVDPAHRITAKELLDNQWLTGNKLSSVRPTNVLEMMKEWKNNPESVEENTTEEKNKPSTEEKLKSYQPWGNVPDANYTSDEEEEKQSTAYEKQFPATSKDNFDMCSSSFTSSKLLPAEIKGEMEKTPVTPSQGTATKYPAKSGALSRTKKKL
UniProt P57058, sequence (whole entry, looked up): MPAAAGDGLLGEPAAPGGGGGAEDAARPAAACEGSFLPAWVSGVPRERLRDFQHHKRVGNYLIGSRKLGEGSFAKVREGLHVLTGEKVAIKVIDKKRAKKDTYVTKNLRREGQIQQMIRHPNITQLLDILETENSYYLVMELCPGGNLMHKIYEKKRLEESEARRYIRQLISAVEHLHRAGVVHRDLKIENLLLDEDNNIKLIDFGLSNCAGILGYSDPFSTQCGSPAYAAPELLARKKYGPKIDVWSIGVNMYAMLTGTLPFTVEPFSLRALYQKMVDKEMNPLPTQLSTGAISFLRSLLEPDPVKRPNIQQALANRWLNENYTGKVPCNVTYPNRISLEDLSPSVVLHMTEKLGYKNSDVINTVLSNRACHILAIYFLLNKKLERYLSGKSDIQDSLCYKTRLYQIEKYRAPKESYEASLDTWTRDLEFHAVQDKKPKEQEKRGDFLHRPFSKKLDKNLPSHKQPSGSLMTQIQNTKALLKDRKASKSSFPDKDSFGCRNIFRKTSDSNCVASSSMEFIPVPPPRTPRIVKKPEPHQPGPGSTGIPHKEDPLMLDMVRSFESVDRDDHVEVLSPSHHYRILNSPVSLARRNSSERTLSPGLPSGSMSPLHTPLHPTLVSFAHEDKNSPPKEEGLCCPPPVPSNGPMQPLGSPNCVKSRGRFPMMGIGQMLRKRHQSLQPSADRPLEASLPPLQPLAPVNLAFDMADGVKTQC
UniProt Q9UL54, sequence (whole entry, looked up): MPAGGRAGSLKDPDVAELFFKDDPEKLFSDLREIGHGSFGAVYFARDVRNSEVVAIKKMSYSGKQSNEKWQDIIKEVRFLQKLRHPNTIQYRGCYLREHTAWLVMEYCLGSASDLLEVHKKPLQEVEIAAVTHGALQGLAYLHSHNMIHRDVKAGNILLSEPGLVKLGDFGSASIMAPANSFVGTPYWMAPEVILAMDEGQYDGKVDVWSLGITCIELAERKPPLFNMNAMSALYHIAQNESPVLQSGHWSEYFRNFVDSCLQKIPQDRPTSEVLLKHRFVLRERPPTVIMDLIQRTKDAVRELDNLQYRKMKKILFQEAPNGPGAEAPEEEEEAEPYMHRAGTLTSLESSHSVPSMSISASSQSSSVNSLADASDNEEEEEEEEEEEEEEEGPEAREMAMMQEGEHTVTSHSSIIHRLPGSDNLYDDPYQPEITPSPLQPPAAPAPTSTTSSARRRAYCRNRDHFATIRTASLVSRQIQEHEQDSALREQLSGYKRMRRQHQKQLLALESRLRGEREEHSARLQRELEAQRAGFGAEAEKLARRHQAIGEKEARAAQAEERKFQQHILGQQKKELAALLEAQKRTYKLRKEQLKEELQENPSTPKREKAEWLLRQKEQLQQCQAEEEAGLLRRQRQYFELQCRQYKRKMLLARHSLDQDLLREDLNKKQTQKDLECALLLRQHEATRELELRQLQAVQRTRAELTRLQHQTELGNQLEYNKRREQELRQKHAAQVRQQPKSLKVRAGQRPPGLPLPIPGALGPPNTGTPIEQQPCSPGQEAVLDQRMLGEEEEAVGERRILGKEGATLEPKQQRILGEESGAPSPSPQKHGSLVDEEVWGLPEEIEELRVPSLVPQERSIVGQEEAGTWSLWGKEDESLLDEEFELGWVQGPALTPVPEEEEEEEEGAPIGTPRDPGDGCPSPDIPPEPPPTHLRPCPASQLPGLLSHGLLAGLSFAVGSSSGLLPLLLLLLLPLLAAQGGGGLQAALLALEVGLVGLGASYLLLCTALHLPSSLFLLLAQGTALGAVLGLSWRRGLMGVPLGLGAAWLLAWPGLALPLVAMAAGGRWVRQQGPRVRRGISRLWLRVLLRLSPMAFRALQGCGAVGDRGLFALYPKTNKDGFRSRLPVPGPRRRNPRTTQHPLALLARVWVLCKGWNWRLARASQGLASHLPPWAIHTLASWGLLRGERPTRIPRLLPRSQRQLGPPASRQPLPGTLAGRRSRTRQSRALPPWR
UniProt Q02779, sequence (whole entry, looked up): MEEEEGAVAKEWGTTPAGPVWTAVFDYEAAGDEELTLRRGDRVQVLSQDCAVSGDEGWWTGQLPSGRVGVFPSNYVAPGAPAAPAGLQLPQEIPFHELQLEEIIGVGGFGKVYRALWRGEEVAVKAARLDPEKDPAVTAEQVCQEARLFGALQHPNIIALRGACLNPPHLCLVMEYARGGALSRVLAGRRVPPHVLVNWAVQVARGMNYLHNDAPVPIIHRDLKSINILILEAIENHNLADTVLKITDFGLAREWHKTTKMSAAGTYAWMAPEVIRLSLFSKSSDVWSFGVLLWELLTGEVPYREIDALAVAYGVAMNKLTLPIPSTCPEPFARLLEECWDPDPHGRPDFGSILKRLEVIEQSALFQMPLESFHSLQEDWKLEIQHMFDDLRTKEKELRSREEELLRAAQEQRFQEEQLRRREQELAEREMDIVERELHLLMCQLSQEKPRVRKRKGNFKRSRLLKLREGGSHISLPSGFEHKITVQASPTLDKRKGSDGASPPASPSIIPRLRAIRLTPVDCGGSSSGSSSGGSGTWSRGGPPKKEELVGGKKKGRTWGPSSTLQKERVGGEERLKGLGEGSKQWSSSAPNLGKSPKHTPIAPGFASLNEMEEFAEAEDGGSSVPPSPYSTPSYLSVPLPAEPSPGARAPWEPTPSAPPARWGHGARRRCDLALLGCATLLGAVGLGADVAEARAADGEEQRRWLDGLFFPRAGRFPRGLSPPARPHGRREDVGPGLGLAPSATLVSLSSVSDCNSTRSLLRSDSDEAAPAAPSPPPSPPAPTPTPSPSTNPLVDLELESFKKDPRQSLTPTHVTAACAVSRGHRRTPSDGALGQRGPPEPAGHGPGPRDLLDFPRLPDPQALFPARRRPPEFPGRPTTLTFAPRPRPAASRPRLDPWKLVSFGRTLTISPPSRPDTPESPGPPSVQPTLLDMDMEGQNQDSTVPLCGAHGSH
UniProt Q9UKI8, sequence (whole entry, looked up): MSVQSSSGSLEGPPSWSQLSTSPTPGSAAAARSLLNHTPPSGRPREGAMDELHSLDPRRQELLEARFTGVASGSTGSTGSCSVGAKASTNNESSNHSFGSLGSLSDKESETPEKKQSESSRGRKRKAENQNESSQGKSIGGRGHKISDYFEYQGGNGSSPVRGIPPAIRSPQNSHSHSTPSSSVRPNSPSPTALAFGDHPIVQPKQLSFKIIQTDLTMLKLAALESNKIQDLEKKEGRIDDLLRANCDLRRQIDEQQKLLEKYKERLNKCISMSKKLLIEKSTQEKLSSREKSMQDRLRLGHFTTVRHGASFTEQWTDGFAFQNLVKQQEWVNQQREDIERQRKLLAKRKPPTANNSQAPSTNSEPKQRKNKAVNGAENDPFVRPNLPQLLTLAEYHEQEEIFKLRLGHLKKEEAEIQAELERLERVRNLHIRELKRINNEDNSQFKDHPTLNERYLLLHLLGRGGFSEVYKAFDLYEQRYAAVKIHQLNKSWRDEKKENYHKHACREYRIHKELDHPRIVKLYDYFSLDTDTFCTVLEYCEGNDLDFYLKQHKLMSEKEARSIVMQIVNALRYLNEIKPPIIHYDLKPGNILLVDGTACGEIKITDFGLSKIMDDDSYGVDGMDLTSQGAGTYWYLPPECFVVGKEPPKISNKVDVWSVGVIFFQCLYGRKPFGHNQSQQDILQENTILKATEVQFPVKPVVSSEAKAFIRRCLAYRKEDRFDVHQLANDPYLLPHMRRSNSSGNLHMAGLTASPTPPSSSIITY
UniProt P06239, sequence (whole entry, looked up): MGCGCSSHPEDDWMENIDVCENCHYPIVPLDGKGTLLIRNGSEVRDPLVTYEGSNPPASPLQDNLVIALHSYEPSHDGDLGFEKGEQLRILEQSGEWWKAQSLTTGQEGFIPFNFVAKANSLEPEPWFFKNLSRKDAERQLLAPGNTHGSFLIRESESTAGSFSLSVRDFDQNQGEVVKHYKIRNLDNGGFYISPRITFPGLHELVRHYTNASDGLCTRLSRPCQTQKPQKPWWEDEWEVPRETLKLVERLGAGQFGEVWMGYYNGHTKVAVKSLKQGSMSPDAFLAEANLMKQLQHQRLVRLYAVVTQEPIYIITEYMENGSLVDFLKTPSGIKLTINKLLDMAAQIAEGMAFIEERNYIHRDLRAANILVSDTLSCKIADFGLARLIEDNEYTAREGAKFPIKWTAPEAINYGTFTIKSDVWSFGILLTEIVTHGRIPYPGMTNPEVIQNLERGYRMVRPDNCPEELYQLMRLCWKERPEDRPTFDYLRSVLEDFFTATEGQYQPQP
UniProt Q96PN8, sequence (whole entry, looked up): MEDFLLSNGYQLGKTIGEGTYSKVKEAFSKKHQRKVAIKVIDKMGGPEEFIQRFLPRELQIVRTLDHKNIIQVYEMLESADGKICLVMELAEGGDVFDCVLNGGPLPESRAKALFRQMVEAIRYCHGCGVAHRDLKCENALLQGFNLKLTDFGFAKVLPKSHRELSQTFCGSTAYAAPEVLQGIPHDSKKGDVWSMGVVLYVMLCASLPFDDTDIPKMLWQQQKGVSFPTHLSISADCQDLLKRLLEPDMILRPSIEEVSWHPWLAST

Set 1
Organism: Sarcocystis neurona
Effect on: parasite growth
Concentration: 10 µM
Time: 96 h
Setting: second screen
Relative to: untreated
`CCCN1CCCC[C@H]1C(=O)Nc1c(C)cccc1C`: “log2 fold change” 0.58.
`CC(C)(S)[C@@H](N)C(=O)O` — result for “log2 fold change”: 0.23.
`CCc1c(C)[nH]c2c1C(=O)C(CN1CCOCC1)CC2` (stereo not shown) — result for “log2 fold change”: 0.44.
For `C[C@H]1O[C@H](O[C@H]2[C@H](O)[C@@H](O)[C@@H](O[C@H]3[C@H](O)[C@@H](O)C(O)O[C@@H]3CO)O[C@@H]2CO)[C@H](O)[C@@H](O)[C@@H]1N[C@H]1C=C(CO)[C@@H](O)[C@H](O)[C@H]1O` (stereo partly shown), “log2 fold change” read 0.32.
`O=c1[nH]c(=O)n(C2CCCO2)cc1F` (stereo not shown) — result for “log2 fold change”: 0.08.

Set 2
Cell line: mouse MPNST tumor cells
Method: high-content immunofluorescence imaging
Item: nuclear SOX9
Concentration: 10 µM
Time: 12 h
Setting: mean of 2 replicates
Relative to: DMSO control
Reading: higher = more nuclear SOX9
`O=C(NNS(=O)(=O)c1ccccc1F)c1cc(F)cc(-c2ccccn2)c1` — result for “nuclear SOX9 intensity”: 77.6 % of DMSO.
`Cc1nc2c(O)cccc2c(=O)[nH]1`: “nuclear SOX9 intensity” 91.9 % of DMSO.
`Cc1cc(N2CCCCC2)nc2ccccc12`: “nuclear SOX9 intensity” 89.9 % of DMSO.

Set 3
SMILES: O=C(Nc1cccnn1)N1CCC(=Cc2cccc(Oc3ccc(C(F)(F)F)cn3)c2)CC1
Method: competition with immobilised ligand
Concentration: 1 µM
It gave 85% for remaining binding (Tyrosine-protein kinase ABL1, phosphorylated (ABL1, Homo sapiens, UniProt P00519, E255K); binding).
For CAMKK1 (Homo sapiens, UniProt Q8N5S9); cell-free assay: remaining binding read 92%.
It gave 100% for remaining binding (TAOK2 (Homo sapiens, UniProt Q9UL54); cell-free assay).
HUNK (Homo sapiens, UniProt P57058); cell-free assay — remaining binding: 87%.
MAP3K10 (Homo sapiens, UniProt Q02779); cell-free assay — remaining binding: 100%.
EPHB4 (Homo sapiens, UniProt P54760); cell-free assay — remaining binding: 69%.
The remaining binding was 81% (COQ8B (Homo sapiens, UniProt Q96D53); cell-free assay).
STK33 (Homo sapiens, UniProt Q9BYT3); cell-free assay — remaining binding: 100%.
It gave 100% for remaining binding (TLK1 (Homo sapiens, UniProt Q9UKI8); cell-free assay).
For NTRK1 (Homo sapiens, UniProt P04629); cell-free assay: remaining binding read 100%.
TSSK3 (Homo sapiens, UniProt Q96PN8); cell-free assay — remaining binding: 100%.
The remaining binding was 80% (LCK (Homo sapiens, UniProt P06239); cell-free assay).
MAP2K5 (Homo sapiens, UniProt Q13163); cell-free assay — remaining binding: 100%.

Set 4
Host: human
Sample: microsomes or S9
Concentration: 2 µM
Time: 0.5 h
`Cc1oc(-c2nc(C#N)c(N(C)C)o2)cc1S(=O)(=O)N(C)c1ccccc1` has a remaining compound of 92.8%.
For `CC(=O)N1c2nc(-c3ccco3)nn2C2(CCCCC2)[C@@H]2CCCC[C@@H]21`, the remaining compound was 0.372%.
The remaining compound of `COc1cc(C)c(S(=O)(=O)N2CCN(c3cc(-n4ccnc4C)ncn3)CC2)cc1C` is reported as 25.7%.
`CC1CN(Cc2cncs2)CCN1CC(C)(C)O` (stereo not shown) gave a remaining compound of 94.2%.
For `COc1ccc(CN2Cc3c(Cl)ccnc3C2=O)cc1OC`, the remaining compound was 0.224%.
The remaining compound of `Cc1cccc(C)c1C1=NOC(C)(CS(=O)(=O)C2=NOC(C)(C)C2)C1` (stereo not shown) is reported as > 100%.
The remaining compound of `Cc1cnn(C2CCCC2)c1NC(=O)N1CCC[C@H]1c1nc(C(C)C)no1` is reported as 40.7%.

Some of these lines once more (set 4):
`Cc1oc(-c2nc(C#N)c(N(C)C)o2)cc1S(=O)(=O)N(C)c1ccccc1` has a remaining compound of 92.8%.
For `CC(=O)N1c2nc(-c3ccco3)nn2C2(CCCCC2)[C@@H]2CCCC[C@@H]21`, the remaining compound was 0.372%.
The remaining compound of `Cc1cnn(C2CCCC2)c1NC(=O)N1CCC[C@H]1c1nc(C(C)C)no1` is reported as 40.7%.
